# Results collected from several papers.
# Compare with care: the assays were run in different laboratories. Several values in a cell are separate wells, animals, samples, runs or records.
# SLC6A3: Sodium-dependent dopamine transporter (SLC6A3, Homo sapiens, UniProt Q01959)
Compound,target,test,test system,setting,how to read,endpoint,value
O=C(O)c1ccc(-c2nc(-c3ccccc3Cl)c3sccn23)cc1,SLC6A3,"radioligand binding, safety screen panel",,10 µM,relative to: control,specific binding,110% and 104%
Cc1sc2c(c1C)C(c1ccc(Cl)cc1)=NC(CC(=O)OC(C)(C)C)c1nnc(C)n1-2 (centres unmarked),SLC6A3,"ligand displacement, radioligand",,1 µM,,remaining binding,107%
CCN(CC)CCOc1ccc(-c2nnn(Cc3ccc(OC)cc3)c2N)cc1,SLC6A3,radioligand binding,CHO-K1,"10 µM, safety profiling",,inhibition,0.65%
CCOCC1C(c2ccc(Cl)c(Cl)c2)CC2CCC1N2C (centres unmarked),"SLC6A3 (Homo sapiens, UniProt Q01959, F326A)",dopamine uptake,,"0.003 µM, 0.03333 h, F326A mutant, added: [3H]dopamine",relative to: no inhibitor,remaining activity,40.6%
CCc1nnc(-c2c(OC)cc(-c3cnc4cc(-c5cnn(C)c5)ccn34)cc2OC)o1,SLC6A3,"antagonist radioligand, radioligand binding",,"10 µM, SafetyScreen44 dopamine transporter mean",lower = stronger displacement,remaining binding,92.7%
CCCO[C@H]1[C@H](O)[C@@H](N)[C@@H](O[C@H]2[C@H](O[C@@H]3O[C@H](CO)[C@@H](O[C@H]4O[C@@H](CN)[C@@H](O)[C@H](O)[C@H]4N)[C@H]3O)[C@@H](O)[C@H](N)C[C@@H]2N)O[C@@H]1CO,SLC6A3,radioligand binding,,"10 µM, 1% DMSO",,specific binding,2%
CN[C@@H]1[C@H](O)[C@H](NC)[C@H]2O[C@]3(O)[C@H](O[C@@H]2[C@H]1O)O[C@H](C)C[C@H]3NC(=O)Cc1cc(Cl)ccn1,SLC6A3,"ligand displacement, radioligand",,10 µM,,inhibition,6%
CS(C)(=O)=Nc1ccc(-c2ccc(-c3nc4cc(O[C@@H]5CO[C@H]6[C@@H]5OC[C@H]6O)[nH]c4cc3F)cc2)cc1,SLC6A3,"ligand displacement, radioligand",,10 µM,,inhibition,13%

# A few entries again:
Compound,target,test,test system,setting,how to read,endpoint,value
CCCO[C@H]1[C@H](O)[C@@H](N)[C@@H](O[C@H]2[C@H](O[C@@H]3O[C@H](CO)[C@@H](O[C@H]4O[C@@H](CN)[C@@H](O)[C@H](O)[C@H]4N)[C@H]3O)[C@@H](O)[C@H](N)C[C@@H]2N)O[C@@H]1CO,SLC6A3,radioligand binding,,"10 µM, 1% DMSO",,specific binding,2%
